Experimental data from different studies.
Compare with care: the assays were run in different laboratories. Several values in a cell are separate wells, animals, samples, runs or records. Numbers after ± are the reported error.

C/C(=N\Nc1ncnc2sc3c(c12)CCCC3)c1cc(O)ccc1O  half-life (ICR mouse, plasma; intravenous, 1 mg/kg): 1.58 h
C#CCOc1ccc(C(=O)c2ccc(NC(=O)C(=O)NCCc3ccc(OC)cc3)cc2)cc1  half-life (CD-1 mouse, mouse liver S9 fraction; 2 µM): 2.1 h
O=S(=O)(N[C@H]1CCC[C@@H](N2c3ccccc3CCc3ccccc32)[C@@H]1O)c1ccc(OC(F)(F)F)cc1  half-life (mouse, plasma; oral, 100 mg/kg, suspension): 3.6 h
Cc1ncsc1-c1ccc(CNC(=O)[C@@H]2C[C@@H](O)CN2C(=O)[C@@H](NC(=O)COCC(C)(COCCOCCOCCNC(=O)C[C@@H]2N=C(c3ccc(Cl)cc3)c3c(sc(C)c3C)-n3c(C)nnc32)COCCOCCOCCNC(=O)C[C@@H]2N=C(c3ccc(Cl)cc3)c3c(sc(C)c3C)-n3c(C)nnc32)C(C)(C)C)cc1  half-life (C57BL/6 mouse male, plasma; intravenous, 5 mg/kg): 2.13 h
O=c1c(-c2cnn(-c3ccc(Cl)cc3)c2)c(C(F)(F)F)oc2c(O)c(O)ccc12  half-life (mouse; intraperitoneal, 100 mg/kg, DMSO vehicle): 9.6 h
Cn1cnc([N+](=O)[O-])c1Sc1ccccc1C(=O)NCCC(N)=O  half-life (LC-MS/MS; CD-1 mouse, whole blood; 1 µM, 37 °C): 0.43 h
O=C(c1ccccc1)N1C(c2ccc(OCC3CCN(CCCF)C3)cc2)c2ccc(O)cc2CC12CC2 (stereo not shown)  half-life (C57BL/6J mouse, plasma; intraperitoneal, 25 mg/kg): 3.7 h and 3.57 h
O=S(=O)(NCc1ccncc1)c1ccc(C2CCCCC2)cc1  half-life (C57BL/6J mouse, male, plasma; intraperitoneal, 0.3 mg/kg): 0.5 h
CCC1(CC)CC(=O)N(C2CCOc3ccc(C(=O)NC4CC(C)(C)Oc5ccccc54)cc32)C(=N)N1 (stereo not shown)  half-life (C57BL/6 mouse male, plasma): 5.7 ± 0.6 h
O=C(NS(=O)(=O)c1cccs1)c1cc2ccccc2n1Cc1ccc(Br)c2ccccc12  half-life (mouse, plasma; oral, 1 mg/kg): 0.84 h
Cc1ccc2oc(-c3c4c(N)n[nH]c(=O)c4nn3-c3ccc(NC(=O)/C=C/CN(C)C)cc3)c(C)c2c1  half-life (BALB/c nude mouse, whole blood; 1 µM, 37 °C): 1.96 h
CN(Cc1cc(C2CC2)on1)C(=O)c1cccc(-c2ccc(F)cc2)c1  half-life (ICR/CD-1 mouse, male, liver microsomes; 2 µM, pH 7.5, without 1-aminobenzotriazole): 0.197 h
Cc1c(-c2c3c(N)n[nH]c(=O)c3nn2-c2ccc(NC(=O)/C=C/CN(C)C)cc2)oc2cc(F)ccc12  half-life (BALB/c nude mouse, whole blood; 1 µM, 37 °C): 1.44 h
C=C1CN(C(=N)N)CC2Nc3c(F)cc(Br)cc3C12CCNS(=O)(=O)c1ccc(Cl)cc1.O=C(O)C(F)(F)F (stereo not shown)  half-life (mouse; intraperitoneal, 30 mg/kg): 2.5 h
O=[N][Fe]1([N]=O)[S](CCO)[Fe]([N]=O)([N]=O)[S]1CCO  half-life (C57BL/6JNarl mouse, plasma; oral, 13.25 mg/kg): 0.94 ± 0.19 h
Cl.NCc1ccc2c(c1)CN(C1CCC(=O)NC1=O)C2=O (stereo not shown)  half-life (male CD-1 mouse, whole blood): > 3 h
